{"data": "Measured values from different studies", "organism": "Trypanosoma congolense", "note": "± gives the spread as reported."}
{"SMILES": "CCOC(=O)C(NC(=O)CN1C(=O)/C(=C/c2ccc3c(c2)OCO3)SC1=S)C(C)C (centres unmarked)", "assay": "parasite growth", "setting": "72 h", "measurement": "IC50", "value": "> 69000 nM"}
{"SMILES": "Nc1ncnc2c1ccn2[C@H]1C[C@H](O)[C@@H](CO)O1", "assay": "parasite growth, resazurin", "setting": "72 h", "measurement": "EC50", "value": "43000 nM"}
{"SMILES": "CCOC(=O)CNC(=O)CN1C(=O)S/C(=C\\c2ccc(C)cc2)C1=O", "assay": "parasite growth", "setting": "72 h", "measurement": "IC50", "value": "36200 nM"}
{"SMILES": "Nc1ncnc2c1c(F)cn2[C@@H]1O[C@H](CO)C[C@H]1O", "assay": "parasite growth, resazurin", "setting": "72 h", "measurement": "EC50", "value": "5.2 nM"}
{"SMILES": "O=[N+]([O-])c1ccc(/C=N/N=C/c2ccc(Br)cc2)s1", "system": "IL3000", "scale": "reference: CC50 MDBK over IC50", "measurement": "selectivity index", "value": "> 0.12"}
{"SMILES": "Oc1ccc(-c2nc(-c3ccccc3)c(-c3ccccc3)[nH]2)cc1", "assay": "parasite viability, luminescence", "system": "IL3000 bloodstream form", "setting": "72 h, 33 °C", "measurement": "EC50", "value": "19.2 µg/mL"}
{"SMILES": "C=Cc1cn([C@@H]2O[C@H](CO)C[C@H]2O)c2ncnc(N)c12", "assay": "parasite growth, resazurin", "setting": "72 h", "measurement": "EC50", "value": "56 nM"}
{"SMILES": "CCOC(=O)C(C)NC(=O)CN1C(=O)N/C(=C\\c2ccc(C)cc2)C1=O (centres unmarked)", "assay": "parasite growth", "setting": "72 h", "measurement": "IC50", "value": "36500 nM"}
{"SMILES": "O=[N+]([O-])c1ccc(/C=N/N=C/c2ccc([N+](=O)[O-])o2)cc1", "assay": "parasite growth, CellTiter-Glo", "system": "IL3000 bloodstream form", "setting": "72 h, 33 °C", "measurement": "IC50", "value": "170 ± 60 nM"}
{"SMILES": "CCC(NC(=O)CN1C(=O)N/C(=C\\c2ccc(C)cc2)C1=O)C(=O)OC (centres unmarked)", "system": "MDBK, IL3000", "scale": "reference: MDBK CC50 over parasite IC50", "measurement": "selectivity index", "value": 1}
{"SMILES": "CC(C)Oc1ncnc2c1c(Cl)cn2[C@@H]1O[C@H](CO)[C@@H](O)[C@H]1O", "assay": "parasite growth, resazurin", "setting": "72 h", "measurement": "EC50", "value": "4040 nM"}
{"SMILES": "CCOC(=O)C(C)NC(=O)CN1C(=O)S/C(=C\\c2ccc(F)cc2)C1=O (centres unmarked)", "assay": "parasite growth", "setting": "72 h", "measurement": "IC50", "value": "14100 nM"}
{"SMILES": "O=[N+]([O-])c1ccc(/C=N/N=C/c2ccc(F)cc2)s1", "system": "IL3000", "scale": "reference: CC50 MDBK over IC50", "measurement": "selectivity index", "value": "0.06 ± 0.03"}
{"SMILES": "CC(C)(C)c1cc(-c2nc3c4ccccc4c4ccccc4c3o2)c(O)c(C(C)(C)C)c1", "assay": "parasite viability, luminescence", "system": "IL3000 bloodstream form", "setting": "72 h, 33 °C", "measurement": "EC50", "value": "6.82 µg/mL"}
{"SMILES": "O=[N+]([O-])c1ccc(/C=N/N=C/c2ccc([N+](=O)[O-])s2)cc1", "assay": "parasite growth, CellTiter-Glo", "system": "IL3000 bloodstream form", "setting": "72 h, 33 °C", "measurement": "IC50", "value": "60 ± 20 nM"}
{"SMILES": "C#Cc1cn([C@@H]2O[C@H](CO)C[C@H]2O)c2ncnc(N)c12", "assay": "parasite growth, resazurin", "setting": "72 h", "measurement": "EC50", "value": "17 nM"}
{"SMILES": "Cc1ccc(/C=N/N=C/c2ccc([N+](=O)[O-])o2)cc1", "assay": "parasite growth, CellTiter-Glo", "system": "IL3000 bloodstream form", "setting": "72 h, 33 °C", "measurement": "IC50", "value": "180 ± 50 nM"}
{"SMILES": "Nc1ncnc2c1c(Cl)cn2[C@@H]1O[C@H](CO)C[C@H]1O", "assay": "parasite growth, resazurin", "setting": "72 h", "measurement": "EC50", "value": "1.2 nM"}
{"SMILES": "CCOC(=O)C(CC)NC(=O)CN1C(=O)S/C(=C\\c2ccc(C)cc2)C1=O (centres unmarked)", "assay": "parasite growth", "setting": "72 h", "measurement": "IC50", "value": "> 59000 nM"}
{"SMILES": "Cc1ccc(-c2nc(-c3ccccc3)c(-c3ccccc3)[nH]2)s1", "assay": "parasite viability, luminescence", "system": "IL3000 bloodstream form", "setting": "72 h, 33 °C", "measurement": "EC50", "value": "> 25 µg/mL"}
{"SMILES": "O=[N+]([O-])c1ccc(/C=N/N=C/c2ccccc2)o1", "assay": "parasite growth, CellTiter-Glo", "system": "IL3000 bloodstream form", "setting": "72 h, 33 °C", "measurement": "IC50", "value": "190 ± 80 nM"}
{"SMILES": "Oc1ccccc1-c1nc2c3ccccc3c3ccccc3c2o1", "assay": "parasite viability, luminescence", "system": "IL3000 bloodstream form", "setting": "72 h, 33 °C", "measurement": "EC50", "value": "> 25 µg/mL"}
{"SMILES": "O=[N+]([O-])c1ccc(/C=N/N=C/c2ccc(Br)cc2)o1", "assay": "parasite growth, CellTiter-Glo", "system": "IL3000 bloodstream form", "setting": "72 h, 33 °C", "measurement": "IC50", "value": "40 ± 10 nM"}
